Measurements of several laboratories.
Each numbered part is a random draw from the data of one study; scales do not carry over between parts.

Set 1 — technique: RNA Bind-n-Seq; form: RNA; medium: in vitro; concentration: 365 nM; relative to: no-protein control; direction: higher = stronger binding
Target: RNA binding protein fox-1 homolog 2, RRM domain, GST-SBP tag (RBFOX2, Homo sapiens, UniProt O43251-10, residues 100-194)
Setting: natural RNA segment, single round, ends assumed
All sequences stand within: GGGAGUUCUACAGUCCGACGAUC … UGGAAUUCUCGGGUGCCAA
Residues (chain): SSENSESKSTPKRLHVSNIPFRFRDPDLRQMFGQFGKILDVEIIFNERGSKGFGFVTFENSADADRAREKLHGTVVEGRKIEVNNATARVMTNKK
Oligonucleotide | RBNS enrichment (R)
AGAAAUAAUGCAUUUCUGUGGAUACAGUGCCCACCGCCCUCCUCCACUUGGAAACGGUAUCCUCCCUGCCCAUCCGUCUGUCUGUCGCCCUUCUCCCGGCCCUCACUAAG | 0.58
CUAACAUUAUCCCCCAGUGAUUACUUUCGAUUACACUGAAGAGACCACCUUGUCUUUAAAGAUCACUUUCCUGGGCUGCAAUGUUCCAACCCAGUUGUUCCAGCUGUUCA | 0.435
ACCGCCUCUGCCCCGUGAUGUGCUGGAAGGCUCCUGUCCUCUCCCCACCGCGUCUUGCCUUUGUGCUGACCCCGCGGGGCUGCGGCCGGCAGCCACUCUGCGUCUCUCAC | 0.46
AAAGGUUAGUAUCAUCAGAUAGCAUCUUAUACGAGUAAUAUGCCUGCUAUUUGAAGUGUAAUUGAGAAGGAAAAUUUUAGCGUGCUCACUGACCUGCCUGUAGCCCCAGU | 0.291
GGUGGCCUCCAUGGCACCCACUCUCCCAGUUCCUAUGCAGGUUAUCCCCUGUGGUUUCUCCCCACAUGCCUACCCUACCUAGGGCUGAGGGGGAGGGGCUCUUGCUUUAA | 0.598
CAUGGUAAAGCUCCUCUCGCUUUCCUCCUGAGGCUACACCCAUGCGUCUCUAGGAACUGGUCACAAAAGUCAUGGUGCCUGCAUCCCUGCCAAGCCCCCCUGACCCUCUC | 1.56
CAGAUAUUUAUAAUCUUCAUCCUAUAUCAGUAGGAAUAACUAUAAGGUGCACUACAAAAAGAUGUAUGCAAACAAACAUGUUUUAAAUCAGGUCAGAUAUCUGAUGAAAA | 0.399
GUACCCAGAUGCCUACAACCAUCCCUGCCACAUACAGGUGCUCAAUAAACACUUGUAGAGCAGAUGGACGAGCUCGCUGUGCUGGUAACAGAUGGUGGUCUGUUCUCAGG | 0.365
AGUGUCAGUGUGGGUAUCAACCUCAAAGUCAGGCACUUGAGCCAUGUGUGGUCCUCCUCCAUCUGGGAUUCAGAAGCCCCUGCCACUGCCUCAGGUCAAGGGGAGGGAGG | 0.247
AGGCCAAGUGGUUUGAAGUUAUUUUUAACCACAGAAGAGUUAAUUUUAUACAAAUAAAUGUAAAUGUAGUUAAAUGAUACAGUAUUUAAUAAAGUGUUCCUUUUCAAGUG | 0.612
GGGCCCCUCCUGCAGCGAGGAUGGGAGGGGGUGCUGAGCUGUGAAUCCCCUGGGCAGGGGGCGACAACUCCGUGUAGCAUUAACCCCCGUGGCGGGGUCCGCUGCUGGUC | 1.06
GCUUGACUUAAUGCACUUACAGGCUCAGGAAGGAAUUUGCUAUCACUGUUGUGGCUUUUGACUUGGGGUGGUCCAGUGCCAGGCUGGAAGUAAGCACAGCCCAUCUCCUG | 1.62

Set 2 — technique: RNA Bind-n-Seq; form: RNA; medium: in vitro; concentration: not given; relative to: input RNA pool; direction: higher = stronger binding
Target: RING finger protein unkempt homolog, zinc fingers 1-6, GST-SBP tag (UNK, Homo sapiens, UniProt Q9C0B0, residues 30-357)
Setting: RNA with constant flanks, human and mouse sites, ends assumed
All sequences stand within: GGGAGUUCUACAGUCCGACGAUC … CAACAGAGGAUUGAGCAUCA
Target sequence (chain): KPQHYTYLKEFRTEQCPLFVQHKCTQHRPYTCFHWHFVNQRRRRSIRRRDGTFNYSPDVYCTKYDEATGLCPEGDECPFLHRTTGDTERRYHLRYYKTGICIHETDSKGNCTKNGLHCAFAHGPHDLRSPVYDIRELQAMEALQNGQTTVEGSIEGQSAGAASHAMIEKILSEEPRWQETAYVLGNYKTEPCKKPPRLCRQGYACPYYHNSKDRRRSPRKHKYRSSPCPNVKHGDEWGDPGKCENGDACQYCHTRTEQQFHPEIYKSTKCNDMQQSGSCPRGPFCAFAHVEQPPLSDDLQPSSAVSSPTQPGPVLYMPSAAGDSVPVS
Oligonucleotide | bound/input enrichment
CUCGGCCGCCUGCCGUGCCCGUCUGCGCCCGUGUCAUCCUCACUCGGGACGCAGGGACCGUUUUUAAAUCACAGGGGCGUGUGUCAGCCUGCCCUAGGACUUCAUGUCUAUAUAUUUCCC | 0.316 ratio
GACAUCCUCUAUGCCCGGCAGAAGGUUGUUGUCACGGCAAAAGCCUUUGGCCUACAAGCCAUAGAUCUUGUGUACAUUGACUUCCGAGAUGAAGACGGACUUCUCAGACAGUCAAGGGAA | 0.235 ratio
AGCACUAAAACAUUAACUAAACAACAGUCAACCACAUUUCCAAAGAACUCUGCUUUAAAACAAGAUGUGAAGCGAACAUUUGGAUCAACCUCACAAUCAAGUAGUUUUUCAAAAAUUCAU | 2.46 ratio
CCCCCUCGGAAGAAAAGGGCACGGGCUGACCCCACUGUGGAGAGCGAGGAGGCAUUCAAGAGUAGGAUGGAGGUGAAGGUGAAGAUCCCUGAAGAAUUAAAACCGUGGCUGGUGGAGGAC | 0.602 ratio
GAAACAUCUCCAGAAUCAUCUCUAAUUCAAGAUGAGAUUGCCGUCAAAUUGUCAGUGGAAAUACCUUGCCCACCUGCUGUUUCAGAGGCUGAUUUAGCCACAGAUGAGAGAGCUGAUGUC | 0.0634 ratio
GAAAGUCUGGAAAACAUUCCUUCUGUUAAGAAGAUUAUAAAGCAGAUCAUAGCCCAUUCCAGCAAAGUUCUGCAUUUCCCCAAUCCUGAGGACAAGAAACUGGAAGAAAUCAUCCUUCAG | 0.126 ratio
CCUCCUACUACAACUGCUGAAAUUGCAACUGCCUCAGCUUCUGCCUCCACUACUACAACUGUUACUGCUGUCACUGCUGAAGUGGAUCUCUUUGGAGAUGCCUUUGCAGCUUCUCCUGGG | 0.221 ratio
GCCAAGGCCAUUCAGCUGAACAGUAAUAGUGUUCAAGCUCUGCUACUUAAGGGAGCAGCACUUAGGAACAUGGGCAGAGUCCAAGAAGCAAUAAUCCACUUUCGGGAGGCCAUACGGCUC | 0.154 ratio
GAUCAUGAACCACCAUCAGAAAUGAAGAUGAGAUUACCCAGACGAGCCAAAACAGCUGCGCUACAGAAAAGUAAACUUAACCUUGCAGAGUUCCUUAAUGAAGAUACAAGUUAAGAGAGC | 0.251 ratio
UAUUUUGAGCAUCCGUGCUAACCUGGGAACUGGCAUCUCUAUUGUUUGCUUCUGCUCAAGCUCCAUGAAACUCCAUGAAUCAGAAGAACUUCACCUGCAGACUUCUUCAAAUGACAGGGG | 0.193 ratio
CUCACUUUCUAUGAAGAAGUUACAAGUAAGCAAAUCUGUACAGCCAUGCAGACACUGUACCAGAUGCAUAAUGCUGAGCAGUACAGCAGUGUGUACGCUUCAUCCUCUUGCAGUAUGGAC | 0.44 ratio

Set 3 — technique: RNA Bind-n-Seq; form: RNA; medium: in vitro; concentration: 200 nM; setting: whole 134-nt RNA, ends assumed; added: 150 mM KCl; relative to: input library; direction: higher = stronger binding
Target: Fragile X messenger ribonucleoprotein 1, C-terminal low-complexity region (Fmr1, Mus musculus, UniProt P35922)
All sequences stand within: GGGAGUUCUACAGUCCGACGAUC … UGGAAUUCUCGGGUGUCAAGG
Oligonucleotide | log2 enrichment
UCCUGUGCUACACAUCGUAUGUACCGAAUCGGGGAAAAAAAGGGGAAAGGGGAAAGGGGAAAGUAUUAUGUUACGCCGUUCGGAUCUGCA | 0.459
UGGCCCUGGUGGCAUGCGGGGAGGAAGAGGUGCCCUCAUGGAUCGUGGUGGUCCCGGUGGAAUGUUCAGAGGUGGCCGUGGUGGAGACAG | 0.0532
CUCAAGUCCUGUGCUACACAUCGUAUGUACCGAAUCGGUGGUUUUUGGUUUGGAAAGUAUUAUGUUACGCCGUUCGGAUCUGCACUUCCA | -0.26
UGGCCCUGGUGGCAUGCGGGGAGGAAGAGGUGGGCUCAUGGAUCGUGGUGGUCCCGGUGGAAUGUUCAGAGGUGGCCGUGGUGGAGACAG | 0.505
CAAGUCCUGUGCUACACAUCGUAUGUACCGAAUCGGAGGAAAAAAAGGAAAAAGGAAAGUAUUAUGUUACGCCGUUCGGAUCUGCACUUC | -0.52
UCAAGUCCUGUGCUACACAUCGUAUGUACCGAAUCGGUUUGGGUUUGGUUUGGGAAAGUAUUAUGUUACGCCGUUCGGAUCUGCACUUCC | -0.41
UAACUUUAGAGCAGGAUCUGAUGGAUAUGGCAGUGGACGUGGAUUUGGGGAUGGCUAUAAUGGGUAUGGAGGAGGACCUGGAGGUGGCAA | 0.428
AGUCCUGUGCUACACAUCGUAUGUACCGAAUCGGCCCCCGGGGCCCCCGGGCCCCCGGAAAGUAUUAUGUUACGCCGUUCGGAUCUGCAC | -0.417
CCUCAAGUCCUGUGCUACACAUCGUAUGUACCGAAUCGGGGAGGGAGGAGGGAAAGUAUUAUGUUACGCCGUUCGGAUCUGCACUUCCAG | 1.3
GUCCUGUGCUACACAUCGUAUGUACCGAAUCGGAAAAAAGGAAAAAAGGGGAAAAAAGGAAAGUAUUAUGUUACGCCGUUCGGAUCUGCA | -0.465
AGUCCUGUGCUACACAUCGUAUGUACCGAAUCGGGAAAAGGGGAAAAGGGAAAAGGGGAAAGUAUUAUGUUACGCCGUUCGGAUCUGCAC | 0.307
UCAAGUCCUGUGCUACACAUCGUAUGUACCGAAUCGGGUGGGUUUGGGAAAGGGAAAGUAUUAUGUUACGCCGUUCGGAUCUGCACUUCC | 1.25
UCCUGUGCUACACAUCGUAUGUACCGAAUCGGGGUUUUUUUGGGGAGGGGUUUUUGGGGAAAGUAUUAUGUUACGCCGUUCGGAUCUGCA | 0.767
UGGCCCUGGUGGCAUGCGGGGAUGAAGAGGUGGCCUCAUGGAUCGUGGUGGUCCCGGUGGAAUGUUCAGAGGUGGCCGUGGUGGAGACAG | 0.185

Set 4 — technique: protein-binding microarray; form: double-stranded DNA, one strand shown; medium: in vitro; concentration: not given; direction: higher = stronger binding
Target: Protein C-ets-1 (ETS1, Homo sapiens, UniProt P14921, residues 1-441, full length assumed)
UniProt P14921, sequence (whole entry, looked up): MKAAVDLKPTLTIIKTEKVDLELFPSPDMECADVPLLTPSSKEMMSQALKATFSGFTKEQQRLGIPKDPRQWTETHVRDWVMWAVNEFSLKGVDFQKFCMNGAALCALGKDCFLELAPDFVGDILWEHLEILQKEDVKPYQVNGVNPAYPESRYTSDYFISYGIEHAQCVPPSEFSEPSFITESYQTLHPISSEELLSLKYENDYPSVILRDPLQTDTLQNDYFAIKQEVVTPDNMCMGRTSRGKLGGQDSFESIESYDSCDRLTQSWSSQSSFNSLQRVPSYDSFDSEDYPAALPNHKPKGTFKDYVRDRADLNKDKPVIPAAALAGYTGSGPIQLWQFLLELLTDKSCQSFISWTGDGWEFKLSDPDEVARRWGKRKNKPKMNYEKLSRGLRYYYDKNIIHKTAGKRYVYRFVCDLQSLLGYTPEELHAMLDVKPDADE
Setting: k-mer, scored over probes, only values ≥0.25
Oligonucleotide | E-score
ATACATCC | 0.373
ATCCGGGC | 0.432
AGGAAACG | 0.43
GGGAAGCA | 0.355
CGAAAGGA | 0.267
CCGGAATC | 0.419
AGACAGGA | 0.423
ACATCCAG | 0.265
CATCCGCC | 0.479
CCTGTTCC | 0.262
CCGGAAAG | 0.467
GCAGGAAC | 0.379
GGAAGCTA | 0.418
CGGATCCG | 0.362
ACCGCGGA | 0.255
AGGAACCG | 0.283
ACTGCGGA | 0.295

Repeated from above (set 4):
Oligonucleotide | E-score
CGAAAGGA | 0.267
GGAAGCTA | 0.418
AGGAACCG | 0.283
AGACAGGA | 0.423
CCGGAAAG | 0.467
CCGGAATC | 0.419
